Measured values gathered from unrelated publications.
Numbered parts are unrelated; each lists some results of a single study.
Chain of UniProt P08588 (whole entry, looked up): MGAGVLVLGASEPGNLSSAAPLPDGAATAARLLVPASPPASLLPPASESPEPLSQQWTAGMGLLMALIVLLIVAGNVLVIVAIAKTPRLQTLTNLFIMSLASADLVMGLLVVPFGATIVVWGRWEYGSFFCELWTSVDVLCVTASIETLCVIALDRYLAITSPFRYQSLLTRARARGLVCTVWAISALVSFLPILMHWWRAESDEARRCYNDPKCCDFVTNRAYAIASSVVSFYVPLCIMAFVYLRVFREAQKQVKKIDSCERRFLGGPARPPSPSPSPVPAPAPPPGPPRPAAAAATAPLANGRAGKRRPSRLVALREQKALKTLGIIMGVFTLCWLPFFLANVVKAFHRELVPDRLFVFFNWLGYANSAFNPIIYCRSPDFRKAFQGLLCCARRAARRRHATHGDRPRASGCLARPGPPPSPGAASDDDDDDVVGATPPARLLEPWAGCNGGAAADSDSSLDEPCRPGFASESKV
Chain of UniProt P21728 (whole entry, looked up): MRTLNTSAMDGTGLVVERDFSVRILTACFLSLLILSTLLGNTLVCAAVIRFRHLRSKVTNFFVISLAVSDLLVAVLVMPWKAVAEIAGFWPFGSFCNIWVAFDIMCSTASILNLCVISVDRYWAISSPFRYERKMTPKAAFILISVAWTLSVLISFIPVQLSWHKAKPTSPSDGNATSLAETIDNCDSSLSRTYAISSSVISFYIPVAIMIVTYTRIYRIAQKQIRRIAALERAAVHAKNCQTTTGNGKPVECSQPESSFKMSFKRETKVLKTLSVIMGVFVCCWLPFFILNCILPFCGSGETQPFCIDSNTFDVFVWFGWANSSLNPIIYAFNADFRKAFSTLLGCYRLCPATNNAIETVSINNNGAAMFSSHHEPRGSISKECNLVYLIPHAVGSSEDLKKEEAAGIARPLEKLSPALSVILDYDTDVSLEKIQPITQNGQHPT
Chain of UniProt P08172 (whole entry, looked up): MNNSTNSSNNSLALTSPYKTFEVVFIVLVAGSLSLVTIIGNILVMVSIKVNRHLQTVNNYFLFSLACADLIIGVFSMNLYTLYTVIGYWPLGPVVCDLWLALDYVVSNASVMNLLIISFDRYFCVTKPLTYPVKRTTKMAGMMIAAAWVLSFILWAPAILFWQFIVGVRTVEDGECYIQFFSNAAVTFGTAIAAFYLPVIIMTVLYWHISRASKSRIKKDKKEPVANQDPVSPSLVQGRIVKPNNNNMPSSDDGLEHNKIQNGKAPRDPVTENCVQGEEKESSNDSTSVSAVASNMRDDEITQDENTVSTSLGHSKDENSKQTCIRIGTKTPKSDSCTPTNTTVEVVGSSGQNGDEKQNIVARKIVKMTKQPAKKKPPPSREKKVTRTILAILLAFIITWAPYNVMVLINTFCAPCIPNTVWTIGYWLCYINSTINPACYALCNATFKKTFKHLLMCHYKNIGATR
Chain of UniProt P18089 (whole entry, looked up): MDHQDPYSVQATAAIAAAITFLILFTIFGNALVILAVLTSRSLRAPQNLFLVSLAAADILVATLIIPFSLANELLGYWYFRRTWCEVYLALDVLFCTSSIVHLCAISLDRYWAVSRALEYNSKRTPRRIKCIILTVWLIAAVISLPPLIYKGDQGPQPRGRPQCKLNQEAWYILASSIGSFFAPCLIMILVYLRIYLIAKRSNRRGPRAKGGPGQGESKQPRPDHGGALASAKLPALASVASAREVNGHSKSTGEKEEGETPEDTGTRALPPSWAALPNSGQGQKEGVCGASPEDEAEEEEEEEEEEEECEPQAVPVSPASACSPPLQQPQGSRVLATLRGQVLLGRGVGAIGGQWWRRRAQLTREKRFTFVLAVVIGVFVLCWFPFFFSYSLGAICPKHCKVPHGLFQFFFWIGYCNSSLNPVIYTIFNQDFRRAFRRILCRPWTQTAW
Chain of UniProt P34969 (whole entry, looked up): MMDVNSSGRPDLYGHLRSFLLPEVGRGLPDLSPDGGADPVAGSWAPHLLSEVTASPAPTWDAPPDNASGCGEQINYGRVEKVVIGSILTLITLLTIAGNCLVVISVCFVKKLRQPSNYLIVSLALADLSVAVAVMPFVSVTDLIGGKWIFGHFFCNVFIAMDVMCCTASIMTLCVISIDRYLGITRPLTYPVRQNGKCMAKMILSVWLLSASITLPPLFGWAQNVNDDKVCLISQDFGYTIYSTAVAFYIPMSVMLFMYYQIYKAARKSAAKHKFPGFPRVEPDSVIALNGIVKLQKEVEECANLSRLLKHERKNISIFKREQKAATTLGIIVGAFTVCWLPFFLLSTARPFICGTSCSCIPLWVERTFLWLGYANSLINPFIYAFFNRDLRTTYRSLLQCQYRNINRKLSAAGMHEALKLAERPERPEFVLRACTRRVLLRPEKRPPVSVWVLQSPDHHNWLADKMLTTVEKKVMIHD
Chain of UniProt P08912 (whole entry, looked up): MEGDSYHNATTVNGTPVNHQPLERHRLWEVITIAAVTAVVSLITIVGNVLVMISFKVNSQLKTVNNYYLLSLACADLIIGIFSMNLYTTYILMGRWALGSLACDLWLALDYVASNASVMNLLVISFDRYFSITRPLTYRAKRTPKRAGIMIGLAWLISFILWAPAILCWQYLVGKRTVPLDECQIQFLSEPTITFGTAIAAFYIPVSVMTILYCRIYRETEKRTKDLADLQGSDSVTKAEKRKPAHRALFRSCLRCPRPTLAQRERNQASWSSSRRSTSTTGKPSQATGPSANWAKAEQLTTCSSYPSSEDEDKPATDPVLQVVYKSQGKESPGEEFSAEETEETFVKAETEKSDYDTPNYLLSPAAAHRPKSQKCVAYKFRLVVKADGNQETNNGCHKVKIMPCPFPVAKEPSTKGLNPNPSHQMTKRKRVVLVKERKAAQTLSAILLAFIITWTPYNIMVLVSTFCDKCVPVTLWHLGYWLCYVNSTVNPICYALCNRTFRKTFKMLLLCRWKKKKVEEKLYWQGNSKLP
Chain of UniProt P08173 (whole entry, looked up): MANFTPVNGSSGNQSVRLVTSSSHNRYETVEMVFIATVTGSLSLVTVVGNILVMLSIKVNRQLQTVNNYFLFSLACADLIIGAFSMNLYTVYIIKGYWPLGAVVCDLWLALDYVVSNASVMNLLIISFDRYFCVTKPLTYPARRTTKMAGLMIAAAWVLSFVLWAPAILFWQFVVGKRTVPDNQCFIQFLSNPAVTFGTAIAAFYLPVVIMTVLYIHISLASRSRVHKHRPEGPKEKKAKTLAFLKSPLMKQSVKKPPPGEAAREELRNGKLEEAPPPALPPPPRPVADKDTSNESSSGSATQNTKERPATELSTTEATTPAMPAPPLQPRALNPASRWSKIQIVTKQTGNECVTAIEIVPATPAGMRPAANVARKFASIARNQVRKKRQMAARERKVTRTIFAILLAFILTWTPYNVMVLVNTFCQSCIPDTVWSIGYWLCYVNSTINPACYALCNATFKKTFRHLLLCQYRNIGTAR
Chain of UniProt P50406 (whole entry, looked up): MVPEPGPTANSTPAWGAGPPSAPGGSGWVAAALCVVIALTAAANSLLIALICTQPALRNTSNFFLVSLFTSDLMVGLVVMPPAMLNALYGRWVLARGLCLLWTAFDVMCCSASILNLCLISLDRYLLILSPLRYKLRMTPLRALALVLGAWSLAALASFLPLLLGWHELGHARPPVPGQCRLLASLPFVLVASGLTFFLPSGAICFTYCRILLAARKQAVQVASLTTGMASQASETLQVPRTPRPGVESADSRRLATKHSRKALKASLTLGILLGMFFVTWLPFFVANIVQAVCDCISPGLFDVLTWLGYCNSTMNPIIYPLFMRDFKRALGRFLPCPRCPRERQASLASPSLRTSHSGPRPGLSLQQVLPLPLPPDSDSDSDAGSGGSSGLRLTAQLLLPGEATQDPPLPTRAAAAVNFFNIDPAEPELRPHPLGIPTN
Chain of UniProt Q5BJF2 (whole entry, looked up): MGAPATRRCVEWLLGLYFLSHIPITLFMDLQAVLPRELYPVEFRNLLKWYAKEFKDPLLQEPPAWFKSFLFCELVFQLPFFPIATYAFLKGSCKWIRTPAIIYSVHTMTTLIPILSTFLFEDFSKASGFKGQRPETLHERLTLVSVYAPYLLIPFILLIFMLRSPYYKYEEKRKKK
Chain of UniProt P08913 (whole entry, looked up): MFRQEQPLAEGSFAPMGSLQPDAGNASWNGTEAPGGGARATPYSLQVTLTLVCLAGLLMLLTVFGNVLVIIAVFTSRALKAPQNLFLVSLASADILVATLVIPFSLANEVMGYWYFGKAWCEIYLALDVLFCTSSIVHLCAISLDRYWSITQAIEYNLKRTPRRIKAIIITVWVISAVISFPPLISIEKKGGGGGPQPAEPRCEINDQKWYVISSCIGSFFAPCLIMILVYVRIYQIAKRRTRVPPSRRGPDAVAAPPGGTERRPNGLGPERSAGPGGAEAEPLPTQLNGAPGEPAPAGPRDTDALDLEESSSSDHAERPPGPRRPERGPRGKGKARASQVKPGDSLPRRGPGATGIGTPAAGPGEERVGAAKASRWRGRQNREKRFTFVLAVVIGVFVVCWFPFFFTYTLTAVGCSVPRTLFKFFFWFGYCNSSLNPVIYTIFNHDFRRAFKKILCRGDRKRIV

Study 1 — observed: cell-free assay; tested at: 10 µM
SMILES: O=C(NNS(=O)(=O)c1ccccc1)c1cc(-c2ccnnc2)ccc1F
For D(1A) dopamine receptor (DRD1, Homo sapiens, UniProt P21728): inhibition read 8.58%.
For Alpha-2A adrenergic receptor (ADRA2A, Homo sapiens, UniProt P08913): inhibition read 68.5%.
For 5-hydroxytryptamine receptor 6 (HTR6, Homo sapiens, UniProt P50406): inhibition read 2.65%.
For Alpha-1D adrenergic receptor (ADRA1D, Homo sapiens, UniProt P25100): inhibition read 17.4%.
D(3) dopamine receptor (DRD3, Homo sapiens, UniProt P35462) — inhibition: -8.61%.
It gave 11.2% for inhibition (Beta-1 adrenergic receptor (ADRB1, Homo sapiens, UniProt P08588)).
Muscarinic acetylcholine receptor M2 (CHRM2, Homo sapiens, UniProt P08172) — inhibition: -5.57%.
For Sigma intracellular receptor 2 (TMEM97, Homo sapiens, UniProt Q5BJF2): inhibition read 40.1%.
For Histamine H1 receptor (HRH1, Homo sapiens, UniProt P35367): inhibition read -2.04%.
For 5-hydroxytryptamine receptor 2B (HTR2B, Homo sapiens, UniProt P41595): inhibition read 40.1%.
The inhibition was 9.83% (D(4) dopamine receptor (DRD4, Homo sapiens, UniProt P21917)).
It gave 3.07% for inhibition (Alpha-2B adrenergic receptor (ADRA2B, Homo sapiens, UniProt P18089)).
Alpha-2C adrenergic receptor (ADRA2C, Homo sapiens, UniProt P18825) — inhibition: -5.42%.
It gave -5.93% for inhibition (Histamine H2 receptor (HRH2, Homo sapiens, UniProt P25021)).
Muscarinic acetylcholine receptor M4 (CHRM4, Homo sapiens, UniProt P08173) — inhibition: -11.8%.
It gave -1.87% for inhibition (5-hydroxytryptamine receptor 7 (HTR7, Homo sapiens, UniProt P34969)).
The inhibition was 10.4% (Beta-2 adrenergic receptor (ADRB2, Homo sapiens, UniProt P07550)).
Alpha-1A adrenergic receptor (ADRA1A, Homo sapiens, UniProt P35348) — inhibition: 18.6%.
It gave -10.6% for inhibition (Muscarinic acetylcholine receptor M5 (CHRM5, Homo sapiens, UniProt P08912)).
It gave -19.8% for inhibition (Histamine H4 receptor (HRH4, Homo sapiens, UniProt Q9H3N8)).
It gave 15.5% for inhibition (Histamine H3 receptor (HRH3, Homo sapiens, UniProt Q9Y5N1)).

Study 2 — mode: antagonist
Target: Beta-1 adrenergic receptor (ADRB1, Homo sapiens, UniProt P08588)
With `O=c1c2c3c(sc2ncn1CC(O)COc1ccc(Cl)cc1Cl)CCC3` (centres unmarked) the IC50 was at least 100 µM.
The IC50 of `COCc1cc(CC2(NCc3ccc(N(C)C)cc3)COC2)no1` is reported as at least 100 µM.
With `O=C1c2c(nc(CNCc3cccc(Cl)c3)n2Cc2ccccc2)NCCN1CCOc1ccccc1` the IC50 was at least 100 µM.
`O=C(c1cc2ccccc2o1)N1CCN(c2cccc(Cl)c2)CC1` gave an IC50 of at least 100 µM.
With `CCCN(CCc1ccccc1)C1CCc2c(O)cccc2C1` (centres unmarked) the IC50 was at least 100 µM.

Study 3 — cell line: mouse MPNST tumor cells; technique: high-content immunofluorescence imaging; measured: nuclear SOX9; tested at: 10 µM; time: 12 h; setting: mean of 2 replicates; baseline: DMSO control; reading: higher = more nuclear SOX9
For `CNC(=O)c1cc(Oc2ccc(NC(=O)Nc3ccc(Cl)c(C(F)(F)F)c3)cc2)ccn1`, “nuclear SOX9 intensity” read 115 % of DMSO.
For `O=C(Nc1ccccc1)c1ccc(NC(=O)c2ccc(Cl)cc2Cl)cc1`, “nuclear SOX9 intensity” read 89.4 % of DMSO.
`O=C(O)C(Cc1c[nH]c2ccccc12)N1C(=O)c2ccccc2C1=O` (centres unmarked): “nuclear SOX9 intensity” 105 % of DMSO.
`CC(Cc1cccc(C(F)(F)F)c1)NCCOC(=O)c1ccccc1` (centres unmarked): “nuclear SOX9 intensity” 113 % of DMSO.

Study 4 — host: mouse; sample: microsomes or S9; tested at: 2 µM; time: 0.5 h
For `CC(C)(C)C(O)CN1C2=NCCN2c2ccccc21` (centres unmarked), the remaining compound was 97.9%.
`CCn1c(=O)c2sccc2n2c(CCC(=O)NCc3ccc(F)cc3)nnc12` has a remaining compound of 6.95%.
With `O=C(C1CCN(C2=NS(=O)(=O)c3ccccc32)CC1)N1CCCc2ccccc21` the remaining compound was 0.757%.
`CC(=O)/N=C1\N(c2ccc(Cl)cc2Cl)C(=O)N(S(=O)(=O)c2ccc(Cl)cc2)C1(C)C(C)C` (centres unmarked) has a remaining compound of 6.44%.
`Brc1ccccc1Cn1c(-c2ccc(Oc3ccccc3)cc2)cn2ncnc12` has a remaining compound of 0.0336%.
With `COc1ccccc1N1CCN(/N=C\C(Cl)=C\c2ccccc2)CC1` the remaining compound was 74.9%.
The remaining compound of `CSc1c(C(C)=O)c(=O)nc2scc(C)n12` is reported as 0.253%.

Study 5 — observed: enzyme activity; mode: inhibitor; tested at: 10 µM
Target: Calcium/calmodulin-dependent protein kinase type II subunit alpha (CAMK2A, Homo sapiens, UniProt Q9UQM7)
Chain of UniProt Q9UQM7 (whole entry, looked up): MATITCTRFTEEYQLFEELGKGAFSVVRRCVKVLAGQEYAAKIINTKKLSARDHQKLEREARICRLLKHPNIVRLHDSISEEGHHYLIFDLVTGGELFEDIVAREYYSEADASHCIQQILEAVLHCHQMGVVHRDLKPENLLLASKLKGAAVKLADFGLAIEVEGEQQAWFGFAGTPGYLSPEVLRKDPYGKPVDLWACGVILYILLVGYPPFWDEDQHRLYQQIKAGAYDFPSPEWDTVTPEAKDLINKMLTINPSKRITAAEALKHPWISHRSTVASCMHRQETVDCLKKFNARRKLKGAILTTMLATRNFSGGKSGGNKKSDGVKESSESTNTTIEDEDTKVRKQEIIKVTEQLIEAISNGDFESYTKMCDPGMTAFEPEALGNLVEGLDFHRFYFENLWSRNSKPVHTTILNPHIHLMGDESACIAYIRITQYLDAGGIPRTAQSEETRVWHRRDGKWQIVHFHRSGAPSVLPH
The inhibition of `CC(=O)OC(C)(C)CC(=O)O[C@H](CC=C(C)C)C1=CC(=O)c2c(O)ccc(O)c2C1=O` is reported as -10%.
With `Nc1nc(=O)n([C@@H]2CS[C@H](CO)O2)cc1F` the inhibition was 3%.
For `COc1ccc2c(c1O)-c1c(O)c(OC)cc3c1[C@H](C2)[N+](C)(C)CC3`, the inhibition was 57%.
With `CC(=O)O[C@H]1C(=O)[C@]2(C)[C@H](O)C[C@H]3OC[C@@]3(OC(C)=O)[C@H]2[C@H](OC(=O)c2ccccc2)[C@]2(O)C[C@H](OC(=O)[C@H](O)[C@@H](NC(=O)c3ccccc3)c3ccccc3)C(C)=C1C2(C)C` the inhibition was 1%.
The inhibition of `CN/C(=C\[N+](=O)[O-])NCCSCc1ccc(CN(C)C)o1` is reported as -6%.
`CC(c1cc2ccccc2s1)N(O)C(N)=O` (centres unmarked) gave an inhibition of 5%.
The inhibition of `CNC(=O)c1cnn(-c2nc(N)c3ncn([C@@H]4O[C@H](CO)[C@@H](O)[C@H]4O)c3n2)c1` is reported as -3%.

Repeated from above (study 1):
Alpha-2C adrenergic receptor (ADRA2C, Homo sapiens, UniProt P18825) — inhibition: -5.42%.
It gave -5.93% for inhibition (Histamine H2 receptor (HRH2, Homo sapiens, UniProt P25021)).
